Experimental data collected from several papers.
A part holds a random share of what one study measured. Positions count from the first letter of the parent shown.
Chain of UniProt Q9H0K1 (whole entry, looked up): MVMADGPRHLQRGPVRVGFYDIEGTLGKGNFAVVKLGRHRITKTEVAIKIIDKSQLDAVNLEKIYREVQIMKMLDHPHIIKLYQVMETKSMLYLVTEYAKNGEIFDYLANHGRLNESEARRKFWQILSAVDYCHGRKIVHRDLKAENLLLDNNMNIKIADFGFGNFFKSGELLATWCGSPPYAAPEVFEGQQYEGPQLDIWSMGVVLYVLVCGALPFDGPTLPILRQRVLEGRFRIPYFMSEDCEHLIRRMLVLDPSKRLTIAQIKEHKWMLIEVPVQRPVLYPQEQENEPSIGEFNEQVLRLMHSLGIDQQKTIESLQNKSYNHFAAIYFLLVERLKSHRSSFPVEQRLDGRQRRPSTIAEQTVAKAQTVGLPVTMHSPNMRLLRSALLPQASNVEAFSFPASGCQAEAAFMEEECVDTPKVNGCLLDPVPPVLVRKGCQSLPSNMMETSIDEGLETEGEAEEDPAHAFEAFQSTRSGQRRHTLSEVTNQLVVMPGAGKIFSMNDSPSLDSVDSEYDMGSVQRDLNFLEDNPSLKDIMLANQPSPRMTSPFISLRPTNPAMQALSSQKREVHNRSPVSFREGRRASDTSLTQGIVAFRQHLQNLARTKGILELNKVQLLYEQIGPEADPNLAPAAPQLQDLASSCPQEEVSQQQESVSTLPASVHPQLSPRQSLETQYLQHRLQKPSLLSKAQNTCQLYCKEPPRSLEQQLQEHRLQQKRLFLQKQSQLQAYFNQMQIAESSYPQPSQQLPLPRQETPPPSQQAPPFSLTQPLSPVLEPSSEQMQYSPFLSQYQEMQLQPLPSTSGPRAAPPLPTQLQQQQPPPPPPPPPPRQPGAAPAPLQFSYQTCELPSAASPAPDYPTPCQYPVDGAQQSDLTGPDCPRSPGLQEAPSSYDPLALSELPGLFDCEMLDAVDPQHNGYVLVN
Chain of UniProt P51812 (whole entry, looked up): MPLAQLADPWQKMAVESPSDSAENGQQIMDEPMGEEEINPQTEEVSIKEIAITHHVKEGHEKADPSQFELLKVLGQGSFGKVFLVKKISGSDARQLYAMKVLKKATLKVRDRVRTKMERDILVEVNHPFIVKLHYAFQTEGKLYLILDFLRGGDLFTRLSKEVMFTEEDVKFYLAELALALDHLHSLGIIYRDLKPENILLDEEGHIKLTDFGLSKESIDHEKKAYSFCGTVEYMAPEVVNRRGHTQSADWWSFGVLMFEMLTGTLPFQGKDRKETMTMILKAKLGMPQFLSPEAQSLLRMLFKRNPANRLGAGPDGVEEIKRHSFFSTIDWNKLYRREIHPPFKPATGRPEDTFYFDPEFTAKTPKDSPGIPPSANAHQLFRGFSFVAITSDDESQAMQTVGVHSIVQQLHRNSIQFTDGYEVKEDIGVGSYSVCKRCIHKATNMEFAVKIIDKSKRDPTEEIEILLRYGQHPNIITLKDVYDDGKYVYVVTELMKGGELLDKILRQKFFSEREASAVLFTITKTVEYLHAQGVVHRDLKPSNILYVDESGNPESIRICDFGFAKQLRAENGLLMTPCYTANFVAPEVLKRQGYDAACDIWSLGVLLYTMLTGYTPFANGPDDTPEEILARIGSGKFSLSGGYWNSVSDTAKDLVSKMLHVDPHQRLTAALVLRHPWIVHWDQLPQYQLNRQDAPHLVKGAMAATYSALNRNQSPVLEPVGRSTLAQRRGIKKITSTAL
Chain of UniProt P17948 (whole entry, looked up): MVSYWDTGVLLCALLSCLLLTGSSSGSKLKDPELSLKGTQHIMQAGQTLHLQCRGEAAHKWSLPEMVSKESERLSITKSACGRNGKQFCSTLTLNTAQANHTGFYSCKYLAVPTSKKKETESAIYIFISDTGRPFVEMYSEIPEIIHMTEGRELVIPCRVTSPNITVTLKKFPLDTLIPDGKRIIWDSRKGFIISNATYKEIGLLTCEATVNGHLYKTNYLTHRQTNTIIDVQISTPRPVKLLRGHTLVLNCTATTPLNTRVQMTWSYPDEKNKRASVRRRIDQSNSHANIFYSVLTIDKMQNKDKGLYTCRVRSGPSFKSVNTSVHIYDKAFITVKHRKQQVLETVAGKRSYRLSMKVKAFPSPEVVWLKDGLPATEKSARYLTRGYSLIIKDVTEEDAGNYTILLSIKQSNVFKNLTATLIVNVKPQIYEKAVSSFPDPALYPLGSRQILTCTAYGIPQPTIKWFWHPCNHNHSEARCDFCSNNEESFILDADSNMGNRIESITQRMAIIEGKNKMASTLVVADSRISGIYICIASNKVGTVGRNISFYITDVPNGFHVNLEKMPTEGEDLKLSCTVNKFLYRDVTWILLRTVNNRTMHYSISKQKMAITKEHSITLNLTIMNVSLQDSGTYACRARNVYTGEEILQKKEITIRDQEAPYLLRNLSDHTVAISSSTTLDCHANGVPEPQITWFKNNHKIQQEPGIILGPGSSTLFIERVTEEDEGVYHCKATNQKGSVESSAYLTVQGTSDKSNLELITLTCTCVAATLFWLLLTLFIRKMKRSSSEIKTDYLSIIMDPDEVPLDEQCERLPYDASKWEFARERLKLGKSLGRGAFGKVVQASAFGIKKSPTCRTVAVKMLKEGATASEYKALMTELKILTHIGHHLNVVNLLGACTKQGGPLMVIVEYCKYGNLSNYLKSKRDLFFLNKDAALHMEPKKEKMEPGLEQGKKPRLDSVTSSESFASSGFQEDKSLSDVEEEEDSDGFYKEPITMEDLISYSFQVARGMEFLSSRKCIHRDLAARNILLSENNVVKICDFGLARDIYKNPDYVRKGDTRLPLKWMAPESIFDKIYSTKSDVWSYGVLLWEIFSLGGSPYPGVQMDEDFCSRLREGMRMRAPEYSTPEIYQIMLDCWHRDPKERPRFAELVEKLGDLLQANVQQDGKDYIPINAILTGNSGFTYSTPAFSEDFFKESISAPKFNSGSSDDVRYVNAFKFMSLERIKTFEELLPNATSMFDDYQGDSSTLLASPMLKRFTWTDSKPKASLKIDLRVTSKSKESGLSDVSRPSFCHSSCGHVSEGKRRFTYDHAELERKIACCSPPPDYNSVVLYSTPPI
Chain of UniProt P49760 (whole entry, looked up): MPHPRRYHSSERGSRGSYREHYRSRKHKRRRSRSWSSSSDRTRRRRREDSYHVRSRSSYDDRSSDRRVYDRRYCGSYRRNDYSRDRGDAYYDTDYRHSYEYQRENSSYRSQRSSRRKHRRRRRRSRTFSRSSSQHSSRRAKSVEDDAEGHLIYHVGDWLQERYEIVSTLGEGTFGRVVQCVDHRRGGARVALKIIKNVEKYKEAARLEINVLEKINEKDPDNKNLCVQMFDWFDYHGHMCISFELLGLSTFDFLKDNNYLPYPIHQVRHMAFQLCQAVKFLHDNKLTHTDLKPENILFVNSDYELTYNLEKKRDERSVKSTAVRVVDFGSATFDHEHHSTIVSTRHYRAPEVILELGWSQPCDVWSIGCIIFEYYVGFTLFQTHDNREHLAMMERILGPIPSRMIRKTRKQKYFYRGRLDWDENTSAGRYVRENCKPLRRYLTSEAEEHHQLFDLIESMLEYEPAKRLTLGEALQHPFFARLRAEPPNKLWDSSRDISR
Chain of UniProt Q96SB4 (whole entry, looked up): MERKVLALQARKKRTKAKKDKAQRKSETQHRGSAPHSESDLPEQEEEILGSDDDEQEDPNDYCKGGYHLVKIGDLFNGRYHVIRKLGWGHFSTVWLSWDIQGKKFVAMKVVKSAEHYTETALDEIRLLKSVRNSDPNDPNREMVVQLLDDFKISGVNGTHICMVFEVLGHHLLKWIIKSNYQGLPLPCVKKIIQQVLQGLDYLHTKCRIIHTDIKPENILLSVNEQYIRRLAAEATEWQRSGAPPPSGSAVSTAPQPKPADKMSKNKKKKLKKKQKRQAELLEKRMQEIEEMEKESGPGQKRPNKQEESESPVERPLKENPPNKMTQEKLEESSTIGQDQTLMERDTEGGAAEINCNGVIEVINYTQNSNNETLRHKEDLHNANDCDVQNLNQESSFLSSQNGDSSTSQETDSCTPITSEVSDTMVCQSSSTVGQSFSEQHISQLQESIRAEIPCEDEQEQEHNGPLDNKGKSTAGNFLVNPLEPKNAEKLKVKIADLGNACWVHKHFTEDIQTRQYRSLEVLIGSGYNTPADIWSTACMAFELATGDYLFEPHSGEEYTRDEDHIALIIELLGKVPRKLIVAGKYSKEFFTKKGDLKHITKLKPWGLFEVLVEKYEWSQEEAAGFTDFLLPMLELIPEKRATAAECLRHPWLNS
Chain of UniProt Q06418 (whole entry, looked up): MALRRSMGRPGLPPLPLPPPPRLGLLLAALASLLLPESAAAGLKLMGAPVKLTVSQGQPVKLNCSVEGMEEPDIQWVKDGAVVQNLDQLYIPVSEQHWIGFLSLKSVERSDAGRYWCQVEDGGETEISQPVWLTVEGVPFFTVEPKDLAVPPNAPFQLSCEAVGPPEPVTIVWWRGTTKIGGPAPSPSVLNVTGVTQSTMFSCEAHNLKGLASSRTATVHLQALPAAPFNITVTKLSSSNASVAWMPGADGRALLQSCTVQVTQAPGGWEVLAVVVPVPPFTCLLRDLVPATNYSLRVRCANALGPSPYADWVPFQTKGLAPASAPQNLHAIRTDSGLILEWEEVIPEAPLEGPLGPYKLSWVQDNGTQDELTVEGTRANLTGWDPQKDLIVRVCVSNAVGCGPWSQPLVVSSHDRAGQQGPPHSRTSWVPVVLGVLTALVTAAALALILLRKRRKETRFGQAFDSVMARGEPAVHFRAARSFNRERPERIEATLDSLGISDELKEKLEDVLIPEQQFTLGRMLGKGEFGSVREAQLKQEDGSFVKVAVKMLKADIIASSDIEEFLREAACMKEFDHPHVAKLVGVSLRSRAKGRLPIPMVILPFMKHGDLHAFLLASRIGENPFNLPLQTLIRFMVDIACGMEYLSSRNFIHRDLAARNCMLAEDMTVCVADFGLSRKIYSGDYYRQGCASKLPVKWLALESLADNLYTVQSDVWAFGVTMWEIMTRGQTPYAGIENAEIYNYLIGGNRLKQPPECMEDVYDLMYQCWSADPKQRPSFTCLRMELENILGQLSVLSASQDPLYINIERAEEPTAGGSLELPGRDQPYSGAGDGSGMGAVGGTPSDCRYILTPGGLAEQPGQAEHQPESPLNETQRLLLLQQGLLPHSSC

Block 1 — effect on: enzyme activity; action: inhibitor; tested at: 0.5 µM; reference: control
SMILES: COC[C@H]1OC(=O)c2coc3c2[C@@]1(C)C1=C(C3=O)[C@@H]2CCC(=O)[C@@]2(C)C[C@H]1OC(C)=O
target | remaining activity
Ephrin type-A receptor 2 (EPHA2, Homo sapiens, UniProt P29317) | 100%
Ephrin type-A receptor 6 (EPHA6, Homo sapiens, UniProt Q9UF33) | 89.7%
Vascular endothelial growth factor receptor 1 (FLT1, Homo sapiens, UniProt P17948) | 85.9%
SRSF protein kinase 1 (SRPK1, Homo sapiens, UniProt Q96SB4) | 94.4%
Ribosomal protein S6 kinase alpha-3 (RPS6KA3, Homo sapiens, UniProt P51812) | 87.5%
Serine/threonine-protein kinase SIK2 (SIK2, Homo sapiens, UniProt Q9H0K1) | 96.8%
Tyrosine-protein kinase receptor TYRO3 (TYRO3, Homo sapiens, UniProt Q06418) | 107%
Casein kinase I isoform epsilon (CSNK1E, Homo sapiens, UniProt P49674) | 95.5%
Dual specificity protein kinase CLK2 (CLK2, Homo sapiens, UniProt P49760) | 88%

Block 2 — target: CCNE1, cyclin fold, Cln2 fusion (human); technique: yeast growth competition, sequencing; medium: yeast; setting: strong parent motif; reference: not given; reading: higher = stronger binding; parent: viral docking peptide; KGVKRKLFAEDSS
Variant | normalised enrichment score
KGVKHKLFAEDSS [R5H] | 0.728
KGVKRGLFAEDSS [K6G] | 0.998
KGVKRQLFAEDSS [K6Q] | 7.64
KGVKRKLFIEDSS [A9I] | 7.66
KGVKEKLFAEDSS [R5E] | 0.226
KGVKRKLFAEDKS [S12K] | 7.12
KGVKCKLFAEDSS [R5C] | 1.84
KGVKRKLHAEDSS [F8H] | 0.236

Single results of other studies — tested at: concentration not given
HLA class I histocompatibility antigen, A alpha chain allele A*69:01: HLA class I histocompatibility antigen, A alpha chain, allele A*69:01 (Homo sapiens, UniProt P04439)
Molecule | tested on | assay | system | conditions | how to read | measurement | result
FLGKIWPS | HLA class I histocompatibility antigen, A alpha chain allele A*69:01 | peptide-MHC binding | peptide |  |  | binding | inactive
Cc1ccc(N(CC2=NCCN2)c2cccc(O)c2)cc1 | HEK-293T/ACE2 | Hoechst nuclei count |  | 16 (unit not given) | reference: vehicle | viability | 99.5%
FLGKIWSS | HLA class I histocompatibility antigen, A alpha chain allele A*69:01 | peptide-MHC binding | peptide |  |  | binding | inactive

A few entries again (block 2):
Variant | normalised enrichment score
KGVKRKLFIEDSS [A9I] | 7.66
